Measurements of several laboratories.
Every numbered part comes from another study and shows a few of its results, in no order. Positions count from the first letter of the parent shown.

Sample 1 — technique: DHFR PCA, deep sequencing; sample: yeast; together with: (+)-ABA 710 µM; relative to: wild-type fitted maximum; direction: higher = stronger binding
Target: ABI1, truncated, D143A, DHFR fusion (Arabidopsis thaliana)
Setting: methotrexate growth selection, single substitutions
Starting sequence: PYL1, truncated, DHFR fusion (Arabidopsis thaliana); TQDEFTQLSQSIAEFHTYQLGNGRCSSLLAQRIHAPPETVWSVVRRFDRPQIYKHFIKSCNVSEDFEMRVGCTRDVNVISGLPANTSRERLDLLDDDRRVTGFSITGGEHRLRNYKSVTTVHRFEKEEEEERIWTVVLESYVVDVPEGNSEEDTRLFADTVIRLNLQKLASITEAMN
`S27G`: “relative binding score” 102%.
`L112M` — result for “relative binding score”: 96.1%.
For `N165F`, “relative binding score” read 5.91%.
For `N61V`, “relative binding score” read 105%.
`R111T`: “relative binding score” 49.3%.
For `D97P`, “relative binding score” read 104%.
`R99W` — result for “relative binding score”: 118%.
For `L20E`, “relative binding score” read 102%.
`L82Q` — result for “relative binding score”: 75.4%.
For `R111L`, “relative binding score” read 88.5%.
`L28V` — result for “relative binding score”: 103%.
`R24D` — result for “relative binding score”: 95.1%.
`S87Y`: “relative binding score” 27.6%.
`L20S` — result for “relative binding score”: 102%.
For `K54R`, “relative binding score” read 71%.
`I105M` — result for “relative binding score”: 92.7%.
`S87D`: “relative binding score” 8.25%.
`L169V`: “relative binding score” 60.3%.

Sample 2 — technique: aptamer microarray, sandwich; molecule type: DNA with 2'F-ANA; sample: in vitro; tested at: 200 nM; together with: Cy3 exosite-II aptamer, 400 nM; direction: higher = stronger binding; strand: GGTTGGTGTGGTTGG
Target: Prothrombin, mature alpha-thrombin (F2, Homo sapiens, UniProt P00734)
Setting: whole 15-mer aptamer, many near background
`2'F-ANA at 7 9 10 11 12 15`: “mean fluorescence intensity” 194 a.u.
For `2'F-ANA at 1 5 6 7 9 10 12`, “mean fluorescence intensity” read 82 a.u.
For `2'F-ANA at 1 2 4 5 7 8 11 14`, “mean fluorescence intensity” read 48.1 a.u.
For `2'F-ANA at 1 6 10 13 15`, “mean fluorescence intensity” read 56.7 a.u.
`2'F-ANA at 4 5 6 7 10 12`: “mean fluorescence intensity” 53.2 a.u.
For `2'F-ANA at 7 11 12 13 14 15`, “mean fluorescence intensity” read 249 a.u.
`2'F-ANA at 2 3 6 7 8 11 15`: “mean fluorescence intensity” 603 a.u.
`2'F-ANA at 1 2 6 8 10 11 12 13 14 15` — result for “mean fluorescence intensity”: 51.2 a.u.
For `2'F-ANA at 1 2 3 7 8 10 12`, “mean fluorescence intensity” read 131 a.u.
For `2'F-ANA at 3 4 5 6 8 9 11 14 15`, “mean fluorescence intensity” read 50.6 a.u.
For `2'F-ANA at 2 3 4 6 7 8 9 10 14`, “mean fluorescence intensity” read 158 a.u.
`2'F-ANA at 1 2 3 5 6 8 9 10 12 13 14 15` — result for “mean fluorescence intensity”: 52.1 a.u.
`2'F-ANA at 1 2 3 5 6 7 11 12 13`: “mean fluorescence intensity” 74.4 a.u.
`2'F-ANA at 1 4 7 10 11 12 15` — result for “mean fluorescence intensity”: 55.7 a.u.
`2'F-ANA at 1 5 7 8 9 10 11 12 14 15`: “mean fluorescence intensity” 50.3 a.u.
For `2'F-ANA at 1 3 5 7 9 10 11`, “mean fluorescence intensity” read 45.3 a.u.
For `2'F-ANA at 2 4 5 11 13 14`, “mean fluorescence intensity” read 64 a.u.
`2'F-ANA at 2 5 8 10 11`: “mean fluorescence intensity” 50.9 a.u.
Under “mean fluorescence intensity”, `2'F-ANA at 1 4 5 9 11 12 13 14` is recorded as 53 a.u.
`2'F-ANA at 2 3 4 5 9 10 12` — result for “mean fluorescence intensity”: 62.3 a.u.
Under “mean fluorescence intensity”, `2'F-ANA at 3 4 6 7 10 11 12 13 15` is recorded as 207 a.u.
For `2'F-ANA at 2 6 13 15`, “mean fluorescence intensity” read 314 a.u.
For `2'F-ANA at 1 5 7 8 9 11 14`, “mean fluorescence intensity” read 45.6 a.u.
`2'F-ANA at 1 3 4 5 6 8 9 11 15`: “mean fluorescence intensity” 61.7 a.u.
Under “mean fluorescence intensity”, `2'F-ANA at 2 3 7 8 9 11 14` is recorded as 440 a.u.

Sample 3 — technique: RNA Bind-n-Seq; molecule type: RNA; sample: in vitro; tested at: 20 nM; setting: 6-mer, flanks averaged, single round; together with: 150 mM KCl; relative to: input library; direction: higher = stronger binding
Target: TAR DNA-binding protein 43, full length, His tag (TARDBP, Homo sapiens, UniProt Q13148, residues 1-414)
`UCGGCC`: “6-mer enrichment (R)” 0.804.
For `AUGCCA`, “6-mer enrichment (R)” read 0.676.
For `UAUUGU`, “6-mer enrichment (R)” read 0.654.
`CUAGUG`: “6-mer enrichment (R)” 0.895.
`UGGGUC`: “6-mer enrichment (R)” 1.73.
Under “6-mer enrichment (R)”, `GCGCCG` is recorded as 1.39.
`GUCUGC`: “6-mer enrichment (R)” 0.843.
`CCUACC`: “6-mer enrichment (R)” 0.609.
For `UCGUCU`, “6-mer enrichment (R)” read 0.579.
For `ACACUC`, “6-mer enrichment (R)” read 0.606.
Under “6-mer enrichment (R)”, `CUCUUC` is recorded as 0.541.
`GUCCGU` — result for “6-mer enrichment (R)”: 0.786.
For `AGGUCA`, “6-mer enrichment (R)” read 0.796.
Under “6-mer enrichment (R)”, `AUGCUC` is recorded as 0.588.
For `CUUUUU`, “6-mer enrichment (R)” read 0.774.
`UACGCA`: “6-mer enrichment (R)” 0.672.
`CGGAUG`: “6-mer enrichment (R)” 1.36.
`ACUCAU` — result for “6-mer enrichment (R)”: 0.576.
`AUCCUG`: “6-mer enrichment (R)” 0.611.
Under “6-mer enrichment (R)”, `AGUACC` is recorded as 0.635.
Under “6-mer enrichment (R)”, `AUUGCA` is recorded as 0.629.
Under “6-mer enrichment (R)”, `UGGCCA` is recorded as 0.897.
`CCGUGC`: “6-mer enrichment (R)” 0.788.
Under “6-mer enrichment (R)”, `UUUUGC` is recorded as 0.698.
Under “6-mer enrichment (R)”, `GACGAU` is recorded as 0.824.

Sample 4 — technique: RNA Bind-n-Seq; molecule type: RNA; sample: in vitro; tested at: 365 nM; relative to: no-protein control; direction: higher = stronger binding
Target: RNA binding protein fox-1 homolog 2, RRM domain, GST-SBP tag (RBFOX2, Homo sapiens, UniProt O43251-10, residues 100-194)
Setting: natural RNA segment, single round, ends assumed
Constant ends, left off below: GGGAGUUCUACAGUCCGACGAUC … UGGAAUUCUCGGGUGCCAA
Residues (chain): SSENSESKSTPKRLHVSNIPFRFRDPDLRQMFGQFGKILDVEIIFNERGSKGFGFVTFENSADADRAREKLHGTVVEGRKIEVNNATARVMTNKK
`GUAAAGAUUUAAGUUAUUUUAAUUUAUUGUGGAUCAGAAACCUAGAUGAAACUGGUCAGAAUCUGUAAAUUACUUAGUUUAUAUCCACUUUGAGCAGGUAUCAAAUGAUU` — result for “RBNS enrichment (R)”: 0.576.
`UAGAGCUUCUGGCACUUGGAGACUUGUAUGAAAGAUGGCUGUGCCUCUGCCUGUCUCCCCCACCGGGCUGGGAGCUCUGCAGAGCAGGAAACAUGACUCGUAUAUGUCUC`: “RBNS enrichment (R)” 0.585.
`AGCAGAGUGGAAAAAUCUGUCUUUAUGGUAUGUUCUAGGUGUAUUGUGAUUUACUGUUAGAUUGCCAAUAUAAGUAAAUAUAGACAUAAUCUAUAUAUAGUGUUUCACAA`: “RBNS enrichment (R)” 0.609.
`AACUCCUUCCCUGCUGCUGAGUGGAGAGAGGCCUCAUCCGGCUUUGACCCACCAUCCGUUGCAGAAGCCUCCAGGAGCAGCAAUCCUAAGAGUGGGAGGCAGCCAAGACC`: “RBNS enrichment (R)” 0.196.
`CUUGAAAUUUAUUGGUUUUGUUGUAAUUUUAUACAGAUUAUAUGAGGGAUAAGAUACUCAUCAAAUUGCAAAUUCUUUUUUUUACAGAAGUGUGGGUAACAGUCACAGCA`: “RBNS enrichment (R)” 0.825.
`GUGUAUCACCUGGUGAGCGAGUGACUGAAACCUGCUCUGGUCUGGGUUUGACCAGGUUAGGACUAUUCUUUCUGUGAAGGAUUGUUUGAUUGUAGUAACUCUAUUGGCAU` — result for “RBNS enrichment (R)”: 0.438.
For `GUGAUGAUGAUUUCUUUUCCCUGCACACAUCUUUCCGGUGCAAUAUCUAUCAAUUGUGAAUCUGGCUGCUGGUGUAUAAAAACCUGGAUGUAAAGCUGAGCCUACAGACC`, “RBNS enrichment (R)” read 0.515.
For `CCCCCACCCCCUGGGAUGACUGCCUUGAUUCCCAUGGGGAACAACUUUAAAGAAAACCACCACAGCAUUCCAAGGAGUCUGGCGUUCCUCCUCCCUGCCAGAUGACUGUC`, “RBNS enrichment (R)” read 0.741.

Some of these lines once more (sample 2):
For `2'F-ANA at 1 2 4 5 7 8 11 14`, “mean fluorescence intensity” read 48.1 a.u.
For `2'F-ANA at 1 6 10 13 15`, “mean fluorescence intensity” read 56.7 a.u.
`2'F-ANA at 4 5 6 7 10 12`: “mean fluorescence intensity” 53.2 a.u.
For `2'F-ANA at 7 11 12 13 14 15`, “mean fluorescence intensity” read 249 a.u.
`2'F-ANA at 2 3 6 7 8 11 15`: “mean fluorescence intensity” 603 a.u.
`2'F-ANA at 1 2 6 8 10 11 12 13 14 15` — result for “mean fluorescence intensity”: 51.2 a.u.
For `2'F-ANA at 1 2 3 7 8 10 12`, “mean fluorescence intensity” read 131 a.u.
For `2'F-ANA at 3 4 5 6 8 9 11 14 15`, “mean fluorescence intensity” read 50.6 a.u.
